{"data": "Experimental data collected from several papers", "target": "Serine/threonine-protein kinase TAO2 (TAOK2, Homo sapiens, UniProt Q9UL54)", "Sequence (Q9UL54 1-1235, as in one of the studies)": "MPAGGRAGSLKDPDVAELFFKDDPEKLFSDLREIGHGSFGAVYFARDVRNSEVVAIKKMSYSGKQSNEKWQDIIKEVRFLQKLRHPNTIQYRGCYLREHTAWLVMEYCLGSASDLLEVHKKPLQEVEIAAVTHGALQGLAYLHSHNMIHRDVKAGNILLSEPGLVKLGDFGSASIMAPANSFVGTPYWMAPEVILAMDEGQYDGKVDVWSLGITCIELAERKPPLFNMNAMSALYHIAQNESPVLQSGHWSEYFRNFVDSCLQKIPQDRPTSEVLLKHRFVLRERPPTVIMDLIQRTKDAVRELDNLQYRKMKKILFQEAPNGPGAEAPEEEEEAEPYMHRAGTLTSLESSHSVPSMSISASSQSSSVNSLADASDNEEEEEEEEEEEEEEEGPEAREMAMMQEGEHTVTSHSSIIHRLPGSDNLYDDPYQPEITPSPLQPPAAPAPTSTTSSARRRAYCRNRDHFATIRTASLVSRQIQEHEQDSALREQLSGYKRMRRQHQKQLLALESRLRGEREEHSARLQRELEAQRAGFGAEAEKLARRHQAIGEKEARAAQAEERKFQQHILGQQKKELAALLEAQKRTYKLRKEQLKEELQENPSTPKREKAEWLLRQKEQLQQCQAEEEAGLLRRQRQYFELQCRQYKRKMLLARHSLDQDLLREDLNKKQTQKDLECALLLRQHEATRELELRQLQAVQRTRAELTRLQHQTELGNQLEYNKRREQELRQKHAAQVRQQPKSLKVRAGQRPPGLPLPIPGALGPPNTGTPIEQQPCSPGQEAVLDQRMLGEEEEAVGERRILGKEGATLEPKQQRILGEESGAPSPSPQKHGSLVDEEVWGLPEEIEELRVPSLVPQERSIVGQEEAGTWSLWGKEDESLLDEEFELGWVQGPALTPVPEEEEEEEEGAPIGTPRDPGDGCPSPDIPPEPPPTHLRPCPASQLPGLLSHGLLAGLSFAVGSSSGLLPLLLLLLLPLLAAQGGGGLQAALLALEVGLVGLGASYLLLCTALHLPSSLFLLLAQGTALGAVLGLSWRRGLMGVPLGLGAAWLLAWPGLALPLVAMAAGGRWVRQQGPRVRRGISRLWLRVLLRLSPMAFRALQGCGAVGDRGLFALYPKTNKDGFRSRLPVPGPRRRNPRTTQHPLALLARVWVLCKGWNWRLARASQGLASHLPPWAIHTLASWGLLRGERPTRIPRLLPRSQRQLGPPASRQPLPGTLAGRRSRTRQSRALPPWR", "note": "Each line is one published result; not all experiments were run side by side."}
{"test": "kinase activity, inhibitor", "conditions": "1 µM", "quantity": "inhibition", "result": "-8%", "SMILES": "COc1cc2ncnc(Nc3ccc(Oc4ccccc4)cc3C)c2cc1OC"}
{"test": "enzyme activity, inhibitor", "conditions": "1 µM, with: 10 µM ATP", "how to read": "relative to: DMSO", "quantity": "remaining activity", "result": "89.8%", "SMILES": "CC(C)(O)[C@H]1CC[C@H](Nc2ccc3ncc(-c4cccc(C(F)(F)F)c4)n3n2)CC1"}
{"test": "ATP probe binding, KiNativ profiling, measured: Lys2 probe site", "system": "THP-1 cell lysate", "conditions": "0.2 mM", "quantity": "inhibition", "result": "-6.6%", "SMILES": "CC[C@@H]1[C@H](F)C(=O)N[C@@H]1COc1nccc2cc(C(N)=O)c(OC)cc12"}
{"test": "kinase activity", "conditions": "10 µM, with: 10 µM ATP", "quantity": "remaining activity", "result": "47%", "SMILES": "COc1cc(F)ccc1-c1ncnc(Nc2cccc(C[S@](C)(=N)=O)c2)n1"}
{"test": "enzyme activity", "conditions": "10 µM", "how to read": "relative to: control", "quantity": "remaining activity", "result": "26%", "SMILES": "COc1cc(N2CCN(C)CC2)ccc1Nc1nc(N)n(C(=O)NCc2c(Cl)cccc2Cl)n1"}
{"test": "KINOMEscan", "conditions": "1 µM", "quantity": "remaining binding", "result": "90%", "SMILES": "C=CC(=O)N1CCC(COCC(=O)N2CCN(c3nc(-c4cnc(N)nc4C(F)F)nc(N4CCOC[C@@H]4C)n3)CC2)CC1"}
{"test": "kinase activity, inhibitor, radiometric", "conditions": "1 µM, with: ATP at Km", "quantity": "remaining activity", "result": "79%", "SMILES": "CN(C)CC#Cc1ccc2[nH]c3c(c2c1)-c1nc(N)ncc1CCC3"}
{"test": "kinase activity, Z'-LYTE", "conditions": "1 µM", "quantity": "inhibition", "result": "< 15%", "SMILES": "CCOc1cc(-c2nncn2C)ccc1Nc1ncc2cc(C)nc(NCC(C)(C)C)c2n1"}
{"test": "kinase activity, KinaseProfiler", "conditions": "0.03 µM, species human", "how to read": "relative to: control", "quantity": "remaining activity", "result": "103%", "SMILES": "Cc1cc(Nc2cc(N3CCN(C)CC3)nc(Sc3ccc(NC(=O)C4CC4)cc3)n2)[nH]n1"}
{"test": "enzyme activity, inhibitor, Z'-LYTE", "conditions": "1000 nM", "quantity": "inhibition", "result": "2%", "SMILES": "CN(C)C1CCN(CC#Cc2nn(C3CCCC3)c3nc(NCc4ccccc4)ncc23)C1 (stereo not shown)"}
